Published values of several laboratories.
Compare with care: the assays were run in different laboratories. ± marks the error that the study gave.

SMILES | cell line | test | system | conditions | how to read | endpoint | value
CCn1cc(-c2cc(Cn3ccnc3)cc3c2CCN([C@H](c2cc(OC)ccn2)C2CC2)C3=O)c(C(F)(F)F)n1 | RT-4 | cell growth, inhibitor | – | 120 h | – | EC50 | 12.1 µM
Cn1c(Nc2nc3ccc(C(F)(F)F)cc3s2)nc2cc(C(=O)NCCOCCO)ccc21 | SH-SY5Y | RNA-seq, refers to: AOPEP mRNA | – | 5 µM, 5 h | reference: untreated cells | fold change | 1.75
Cc1cc(Nc2ncc(Cl)c(Nc3ccccc3S(=O)(=O)C(C)C)n2)c(OC(C)C)cc1C1CCNCC1 | CLB-BAR | phosphoproteomics LC-MS/MS, refers to: AKT1 phosphorylation | – | 200 nM, 60 min | reference: untreated | log2 fold change | -5.99
Cc1ccc(NC(=O)c2ccc(CN3CCN(C)CC3)cc2)cc1Nc1nccc(-c2cccnc2)n1 | iCell Cardiomyocytes (hiPSC-derived) | cellular impedance | – | concentration not given, 24 h | reference: control | cell index | 98.5%
CC(C)C[C@@H](C=O)NC(=O)[C@H](CC(C)C)NC(=O)[C@H](CC(C)C)NC(=O)OCc1ccccc1 | ARPE-19 HiBiT fibulin-3 | HiBiT luminescence | – | 5 µM | – | fibulin-3 level | -69.5%
COc1ccc2c(c1OC)CN1CCc3cc4c(cc3C1=C2)OCO4 | KU812 | – | culture supernatant | 37 µM, together with: A23187 | – | PGD2 level | 240 pg/mL
COc1cnc2cccc(N3CCc4c(cc(Cn5ccnc5C)cc4-c4cn(C)nc4C(F)(F)F)C3=O)c2c1 | CAKI-2 | cell growth, inhibitor | – | 120 h | – | EC50 | > 30 µM
[Cl-].[Cl-].[Os+2].c1cnc2c(c1)ccc1cccnc12.c1cnc2c(c1)ccc1cccnc12.c1cnc2c(c1)ccc1cccnc12 | SK-MEL-28 | cell growth, SRB | – | cool white visible light, normoxia | – | TGI | 13.5 µM
COc1cc(/C=C/C(=O)N2CCC=CC2=O)cc(OC)c1OC | MDA-MB-468 | qRT-PCR, refers to: NDUFA6 | – | 30 µM, 6 h | reference: time zero | mRNA level | 107 ± 21.3%
O=C(O)c1ccc(-c2c[nH]c3ncc(-c4ccccc4)cc23)cc1C1CCCC1 | SK-OV-3 | ATP | 2D monolayer culture | 10 µM, 4 days | reference: untreated | relative cell number | 109%
CS(=O)(=O)CCNCc1ccc(-c2ccc3ncnc(Nc4ccc(OCc5cccc(F)c5)c(Cl)c4)c3c2)o1 | iCell Cardiomyocytes (hiPSC-derived) | xCELLigence Cardio impedance | – | concentration not given, 2 h | reference: control | beat amplitude | 103%
Cn1cc(Nc2nccc(-c3ccc4c(c3)CN(C3COC3)CC[C@H]4NC(=O)c3cn(C(C)(C)C)nn3)n2)cn1 | mouse splenic B cells | refers to: Androgen signalling | – | 30 mg/kg, IgD-activated in vivo | reference: vehicle, direction not given | pathway activation z-score | 2.45
C=C(c1ccc(OC)cc1)[C@@H]1c2cc(Oc3cc(C[C@H]4c5cc(OC)c(OC)cc5CCN4C)ccc3O)c(OC)cc2CCN1C | 3T3-L1 | adipocyte lipid accumulation, Nile Red staining | – | 15 µM | – | inhibition | 39.5 ± 0.6%
O=C(/C=C/C=C/C=C/C1CCCCC1)NC1=C[C@@](O)(/C=C/C=C/C=C/C(=O)NC2=C(O)CCC2=O)[C@@H]2O[C@@H]2C1=O | NCI-H1703 | cell growth, CellTiter-Glo | – | 78 h | – | GI50 | 16.9 µM
CCn1c(-c2nonc2N)nc2cncc(CNC3CCNCC3)c21 | SK-OV-3 | ATP | – | 0.01 µM, 4 days, 3D U-bottom low-attachment | reference: untreated | relative cell number | 127%
Cc1ccc2nc(NCCN)c3ncc(C)n3c2c1 | iCell Cardiomyocytes (hiPSC-derived) | xCELLigence Cardio impedance | – | concentration not given, 2 h | reference: control | beat amplitude | 102%
C[C@H]1Oc2cc(cnc2N)-c2c(nn(C)c2C#N)CN(C)C(=O)c2ccc(F)cc21 | NB1 (ALK amplification, exon 2-3 deletion) | cell viability | – | – | – | Emax | 80.2%
O=C(NCCCNS(=O)(=O)c1ccc(OC(F)(F)F)cc1)C1=Cc2ccccc2S1(=O)=O | HEK293 | immunoblotting, refers to: REST protein | – | after compound removal | – | recovery half-time | ~24 h
CN1CCN(c2ccc3[nH]c(-c4ccc5[nH]c(-c6ccc(C(F)(F)F)cc6)nc5c4)nc3c2)CC1 | NCI/ADR-RES | cell growth, NCI-60 SRB | – | 10 µM, 48 h | – | growth percent | 102%
CC(C)CNC(=S)N/N=C/c1ccc(N2CCC(O)CC2)cc1 | BEAS-2B and A549 | MTT | – | – | reference: IC50 BEAS-2B over IC50 A549 | selectivity ratio | 7.2
CC1(C)COc2ccc(F)cc2CN2c3nc4c(cnn4cc3OC[C@H]2C(F)F)C(=O)N1 | Ba/F3 EML4-ALK variant 1 S1206F | cell viability | – | – | – | Emax | 100%
Cn1cc(-c2ccc(-c3cncc(Cl)c3N3CCC4(CCNC4=O)CC3)cc2)cn1 | COLO 205 | gene expression, microarray, refers to: PLA2G2A mRNA | – | concentration not given, 2 h | reference: untreated cells | log2 fold change | -4.85
COc1ccc2c(c1)NC(=O)CN2c1nc(C)nc2ccccc12 | A549 | flow cytometry | – | 0.003 µM, 24 h | – | cells in S phase | 12.4%
CC[C@@H]1C(=O)N(C)c2cnc(Nc3ccc(C(=O)NC4CCN(C)CC4)cc3OC)nc2N1C1CCCC1 | iCell Cardiomyocytes (hiPSC-derived) | cellular impedance | – | concentration not given, 24 h | reference: control | cell index | 57.1%
Cc1cc(Nc2ncc(Cl)c(Nc3ccccc3S(=O)(=O)C(C)C)n2)c(OC(C)C)cc1C1CCNCC1 | NB1 (ALK amplification, exon 2-3 deletion) | cell viability | – | – | – | Emax | 76.4%
COc1ccc(Cc2nccc3cc(OC)c(OC)cc23)cc1 | A549 | mitochondrial oxygen consumption, Seahorse XF96 | – | 10 µM | – | inhibition | 18%
C=CC(=O)N1CCC[C@@H](n2nc(-c3ccc(Oc4ccccc4)cc3)c3c(N)ncnc32)C1 | Ramos | calcium flux, FLIPR | – | – | – | maximal inhibition | ≤ 90%

SMILES | cell line | test | system | conditions | how to read | endpoint | value
CCCCCCNC(=O)n1cc(F)c(=O)[nH]c1=O | SW-403 | LC-MS, refers to: Cer(d18:1/14:0) | – | 10 µM | – | ceramide level | 16.9 ± 0.37 pmol/mg protein
CC(C)NCC(O)c1ccc(O)c(O)c1 (stereo not drawn) | mouse ventricular cardiomyocytes | – | – | dose not given, 0.359 s | – | sarcomere length | 1.8 µm
Cc1ccc(F)c(NC(=O)Nc2ccc(-c3cccc4[nH]nc(N)c34)cc2)c1 | iCell Cardiomyocytes (hiPSC-derived) | xCELLigence Cardio impedance | – | concentration not given, 2 h | reference: control | beat rate | 94.1%
c1cnc2c(c1)ccc1cccnc12 | differentiated THP-1 | – | – | 25 µg/mL | reference: albendazole and praziquantel | IL-10 mRNA level | increased
C[C@H]1CN(C2COC2)CCN1c1ccc(Nc2cc(-c3ccnc(N4CCn5c(cc6c5CC(C)(C)C6)C4=O)c3CO)cn(C)c2=O)nc1 | Ramos | calcium flux, FLIPR | – | 4 h preincubation | – | maximum inhibition | 86.2%
CCCN1CCN(c2ccc3[nH]c(-c4ccc5[nH]c(-c6ccc(OCC)c(OCC)c6)nc5c4)nc3c2)CC1 | NCI/ADR-RES | cell growth, NCI-60 SRB | – | 10 µM, 48 h | – | growth percent | 79.4%
CNC(=O)c1ccccc1Sc1ccc2c(/C=C/c3ccccn3)n[nH]c2c1 | iCell Cardiomyocytes (hiPSC-derived) | xCELLigence Cardio impedance | – | concentration not given, 2 h | reference: control | beat rate | 94.1%
CC(C)(c1ccc(O)cc1)c1ccc(O)cc1 | HepG2 spheroids | Hoechst flow cytometry | – | 1 µM, 24 h | – | G1 phase cells | 71.2 ± 3.6%
Cc1cccc(-c2[nH]c(CNc3ccccc3F)nc2-c2ccc3ncnn3c2)n1 | MM1.S | XTT | – | 1.2 µM | reference: untreated | viability | 51%
CCOc1cc2ncc(C#N)c(Nc3ccc(OCc4ccccn4)c(Cl)c3)c2cc1NC(=O)/C=C/CN(C)C | iCell Cardiomyocytes (hiPSC-derived) | xCELLigence Cardio impedance | – | concentration not given, 2 h | reference: control | beat rate | 76.8%
COc1ccc(-n2nc(C(C)=O)s/c2=N\N=C(/C)c2ccc(NC(=O)c3ccc(C)cc3)cc2)cc1 | HepG2 | – | – | 10 µM | – | viability | 2.68%
C[C@H]1C[C@H]2[C@@H]3CCC4=CC(=O)C=C[C@]4(C)[C@H]3C(=O)C[C@]2(C)[C@@]1(O)C(=O)CO | HepaRG | ROS-Glo | – | – | – | maximal ROS response | -53.6 ± 71.2%
C=CC(=O)N1CCC([C@@H]2CCNc3c(C(N)=O)c(-c4ccc(Oc5ccccc5)cc4)nn32)CC1 | Ramos | calcium flux, FLIPR | – | 4 h preincubation | – | maximum inhibition | 80.7%
Cn1cc(-c2ccc(F)c(C(F)(F)F)c2)nc1C1CCN(c2ncnc3[nH]ncc23)CC1 | SK-OV-3 | ATP | – | 0.01 µM, 4 days, 3D gellan gum culture | reference: untreated | relative cell number | 99.2%
CCCCc1nc(Cl)c(CO)n1Cc1ccc(-c2ccccc2-c2nn[nH]n2)cc1 | human PBMC | RNA-seq, refers to: CD163L1 mRNA | – | 10 µg/mL, 24 h | reference: untreated control | log2 fold change | -2.85
CN1CCN(S(=O)(=O)c2ccc(-c3cnc(N)c(C(=O)Nc4cccnc4)n3)cc2)CC1 | ARPE-19 HiBiT fibulin-3 | HiBiT luminescence | – | 1.66 µM | – | fibulin-3 level | -37.9%
C[C@@H](NC(=O)c1ccc(C#Cc2cccc(F)c2)cn1)C(C)(C)O | rat cortical astrocytes | calcium mobilization | – | compound alone | reference: glutamate maximum | maximal response | 16 ± 0.8%
C=CC(=O)N1CCC[C@@H](c2ccc(C(N)=O)c3[nH]ccc23)C1 | TMD8 RAC2 knockout | calcium flux, FLIPR | – | 2 h preincubation | – | IC50 | 0.019 µM
Cn1cnc2c(F)c(Nc3ccc(Br)cc3F)c(C(=O)NOCCO)cc21 | A549 | – | – | 0.07813 µM, 72 h | – | viability | 74.9%
COC(=O)c1cc(C(C)=NNc2nc(-c3ccc4c(c3)OCCCO4)cs2)ccc1O | T47D | flow cytometry | – | 40 µM, 72 h | – | cells in S phase | 66.3 ± 1.9%
COc1ccc2c(N(C)c3ccc(/C(C)=N/OCCN)cc3)c3c(Cl)coc3nc2c1 | LNCaP C-81 | immunoblot | – | 1 µM, 72 h, steroid-reduced medium | – | Bax protein level | increased
COc1ccc2ncnc(Cc3ccc(OC)c(OC)c3)c2c1 | A549 | mitochondrial oxygen consumption, Seahorse XF96 | – | 10 µM | – | inhibition | 12%
CCn1cc(-c2cc(Cn3ccoc3=N)cc3c2CCN([C@@H](C)c2cc(OC)ccn2)C3=O)c(C(F)(F)F)n1 | OVTOKO | cell growth, inhibitor | – | 120 h | – | EC50 | 0.227 µM
Cc1cc2c(F)c(Oc3ncnn4cc(OC[C@@H](C)O)c(C)c34)ccc2[nH]1 | iCell Cardiomyocytes (hiPSC-derived) | CellTiter-Glo | – | concentration not given, 24 h | reference: control | ATP level | 105%
O=C(COc1ccc(Cl)cc1)NC1CCC(NC(=O)COc2ccc(Cl)cc2)CC1 (stereo not drawn) | Mfn2-deficient and wild-type MEFs | PGL-induced mitochondrial distribution | – | 200 nM, 6 h, together with: PGL | – | mitochondrial-nuclear distance | inhibited
Clc1ccc(C2(c3ccc(-c4cn[nH]c4)cc3)CCNCC2)cc1 | SK-OV-3 | ATP | – | 10 µM, 4 days, 3D U-bottom low-attachment | reference: untreated | relative cell number | 29.2%
C=CC(=O)N1CCC(COCC(=O)N2CCN(c3nc(-c4cnc(N)nc4C(F)F)nc(N4CCOC[C@@H]4C)n3)CC2)CC1 | SK-OV-3 | Akt phosphorylation, inhibitor, in-cell western, refers to: Akt pSer473 | – | – | – | IC50 | 0.0195 µM
